Experimental data gathered from unrelated publications.
Parts stem from different laboratories: compare values within a part only.
Chain of UniProt Q16539 (whole entry, looked up): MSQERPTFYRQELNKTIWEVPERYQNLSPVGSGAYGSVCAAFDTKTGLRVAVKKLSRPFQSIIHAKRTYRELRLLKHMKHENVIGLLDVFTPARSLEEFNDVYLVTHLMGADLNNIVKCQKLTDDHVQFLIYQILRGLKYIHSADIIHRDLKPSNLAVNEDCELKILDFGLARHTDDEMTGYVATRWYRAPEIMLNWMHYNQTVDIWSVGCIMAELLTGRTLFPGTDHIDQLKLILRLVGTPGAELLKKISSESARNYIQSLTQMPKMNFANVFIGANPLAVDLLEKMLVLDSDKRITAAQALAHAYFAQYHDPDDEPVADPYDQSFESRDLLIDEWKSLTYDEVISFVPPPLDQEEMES
Chain of UniProt P53350 (whole entry, looked up): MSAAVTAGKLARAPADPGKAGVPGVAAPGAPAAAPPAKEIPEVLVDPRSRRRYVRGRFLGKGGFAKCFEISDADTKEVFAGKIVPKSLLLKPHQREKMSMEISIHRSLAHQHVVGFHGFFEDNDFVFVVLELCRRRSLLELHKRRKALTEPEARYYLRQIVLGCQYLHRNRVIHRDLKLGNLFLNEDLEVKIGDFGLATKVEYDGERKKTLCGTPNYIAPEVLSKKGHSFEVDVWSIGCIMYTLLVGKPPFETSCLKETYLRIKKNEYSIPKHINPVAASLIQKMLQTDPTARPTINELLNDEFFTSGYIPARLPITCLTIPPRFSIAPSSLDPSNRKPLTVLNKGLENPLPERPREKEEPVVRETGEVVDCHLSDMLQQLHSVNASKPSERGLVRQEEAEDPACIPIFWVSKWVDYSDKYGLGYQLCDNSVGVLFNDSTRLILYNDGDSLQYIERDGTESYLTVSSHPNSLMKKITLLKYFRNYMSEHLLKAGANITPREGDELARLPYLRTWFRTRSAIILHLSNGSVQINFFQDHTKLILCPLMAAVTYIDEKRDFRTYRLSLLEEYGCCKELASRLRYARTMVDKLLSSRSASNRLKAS
Chain of UniProt Q16620 (whole entry, looked up): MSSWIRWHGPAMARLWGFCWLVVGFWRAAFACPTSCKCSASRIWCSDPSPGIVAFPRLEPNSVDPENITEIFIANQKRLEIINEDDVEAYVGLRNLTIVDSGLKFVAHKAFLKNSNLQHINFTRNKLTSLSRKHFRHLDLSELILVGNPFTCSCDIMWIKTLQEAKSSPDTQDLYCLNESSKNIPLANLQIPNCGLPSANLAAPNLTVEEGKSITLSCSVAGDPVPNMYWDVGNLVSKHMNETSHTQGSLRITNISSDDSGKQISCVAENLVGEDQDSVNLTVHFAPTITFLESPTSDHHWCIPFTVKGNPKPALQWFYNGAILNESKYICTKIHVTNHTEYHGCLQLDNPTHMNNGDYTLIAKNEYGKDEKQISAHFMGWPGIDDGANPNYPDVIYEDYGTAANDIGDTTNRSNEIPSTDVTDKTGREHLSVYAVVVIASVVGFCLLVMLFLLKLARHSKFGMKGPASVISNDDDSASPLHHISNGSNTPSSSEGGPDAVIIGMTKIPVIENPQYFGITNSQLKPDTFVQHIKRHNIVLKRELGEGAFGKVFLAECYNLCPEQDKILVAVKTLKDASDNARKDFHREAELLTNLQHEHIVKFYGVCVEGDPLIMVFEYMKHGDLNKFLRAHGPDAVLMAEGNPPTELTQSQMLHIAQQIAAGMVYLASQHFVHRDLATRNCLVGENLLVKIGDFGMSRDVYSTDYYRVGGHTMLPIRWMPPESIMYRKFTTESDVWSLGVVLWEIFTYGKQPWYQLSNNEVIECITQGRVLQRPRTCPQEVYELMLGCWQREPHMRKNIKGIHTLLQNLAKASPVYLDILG
Chain of UniProt P31751 (whole entry, looked up): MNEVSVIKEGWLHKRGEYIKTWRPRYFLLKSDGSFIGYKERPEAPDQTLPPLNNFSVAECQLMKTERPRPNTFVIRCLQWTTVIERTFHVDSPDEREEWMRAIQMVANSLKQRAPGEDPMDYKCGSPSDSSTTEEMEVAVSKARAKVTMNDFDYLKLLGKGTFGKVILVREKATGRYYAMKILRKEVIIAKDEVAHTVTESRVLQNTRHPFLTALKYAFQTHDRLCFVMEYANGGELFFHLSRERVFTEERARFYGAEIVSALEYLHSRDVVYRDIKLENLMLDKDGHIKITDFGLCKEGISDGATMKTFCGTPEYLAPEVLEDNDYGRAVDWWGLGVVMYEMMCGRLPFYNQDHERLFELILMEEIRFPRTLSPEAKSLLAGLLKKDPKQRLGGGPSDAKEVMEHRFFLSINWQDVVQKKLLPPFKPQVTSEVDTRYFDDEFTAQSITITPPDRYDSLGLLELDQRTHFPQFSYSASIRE
Chain of UniProt Q9H4B4 (whole entry, looked up): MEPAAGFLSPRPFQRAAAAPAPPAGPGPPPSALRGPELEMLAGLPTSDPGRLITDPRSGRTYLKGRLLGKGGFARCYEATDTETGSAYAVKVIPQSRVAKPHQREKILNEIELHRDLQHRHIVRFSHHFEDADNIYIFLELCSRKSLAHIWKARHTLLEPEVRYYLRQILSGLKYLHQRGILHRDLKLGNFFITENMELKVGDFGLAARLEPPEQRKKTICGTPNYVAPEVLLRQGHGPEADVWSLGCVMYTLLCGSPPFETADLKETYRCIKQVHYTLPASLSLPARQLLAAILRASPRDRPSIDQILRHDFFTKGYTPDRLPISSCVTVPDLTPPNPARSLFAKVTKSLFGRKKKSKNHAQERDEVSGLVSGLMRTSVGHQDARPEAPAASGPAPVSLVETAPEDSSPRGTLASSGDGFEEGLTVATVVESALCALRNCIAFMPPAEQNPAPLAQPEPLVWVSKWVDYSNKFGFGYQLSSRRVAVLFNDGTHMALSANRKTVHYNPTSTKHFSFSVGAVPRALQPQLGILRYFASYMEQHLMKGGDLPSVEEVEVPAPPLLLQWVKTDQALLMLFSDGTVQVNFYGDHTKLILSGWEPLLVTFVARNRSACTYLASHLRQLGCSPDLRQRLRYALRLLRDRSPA
Chain of UniProt P51956 (whole entry, looked up): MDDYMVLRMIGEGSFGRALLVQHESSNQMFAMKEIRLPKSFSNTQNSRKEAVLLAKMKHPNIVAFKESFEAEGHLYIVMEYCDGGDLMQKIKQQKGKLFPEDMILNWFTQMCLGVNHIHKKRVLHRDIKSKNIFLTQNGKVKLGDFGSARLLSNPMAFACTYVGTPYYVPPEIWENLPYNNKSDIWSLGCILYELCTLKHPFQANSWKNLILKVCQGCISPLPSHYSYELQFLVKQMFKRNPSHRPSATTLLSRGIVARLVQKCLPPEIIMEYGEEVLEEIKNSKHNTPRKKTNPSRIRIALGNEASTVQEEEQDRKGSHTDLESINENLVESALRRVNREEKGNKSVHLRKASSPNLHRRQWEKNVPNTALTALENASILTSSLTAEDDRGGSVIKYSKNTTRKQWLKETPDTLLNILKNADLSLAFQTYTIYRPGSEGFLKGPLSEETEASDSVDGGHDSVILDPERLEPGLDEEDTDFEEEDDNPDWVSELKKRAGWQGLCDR
Chain of UniProt Q8IVW4 (whole entry, looked up): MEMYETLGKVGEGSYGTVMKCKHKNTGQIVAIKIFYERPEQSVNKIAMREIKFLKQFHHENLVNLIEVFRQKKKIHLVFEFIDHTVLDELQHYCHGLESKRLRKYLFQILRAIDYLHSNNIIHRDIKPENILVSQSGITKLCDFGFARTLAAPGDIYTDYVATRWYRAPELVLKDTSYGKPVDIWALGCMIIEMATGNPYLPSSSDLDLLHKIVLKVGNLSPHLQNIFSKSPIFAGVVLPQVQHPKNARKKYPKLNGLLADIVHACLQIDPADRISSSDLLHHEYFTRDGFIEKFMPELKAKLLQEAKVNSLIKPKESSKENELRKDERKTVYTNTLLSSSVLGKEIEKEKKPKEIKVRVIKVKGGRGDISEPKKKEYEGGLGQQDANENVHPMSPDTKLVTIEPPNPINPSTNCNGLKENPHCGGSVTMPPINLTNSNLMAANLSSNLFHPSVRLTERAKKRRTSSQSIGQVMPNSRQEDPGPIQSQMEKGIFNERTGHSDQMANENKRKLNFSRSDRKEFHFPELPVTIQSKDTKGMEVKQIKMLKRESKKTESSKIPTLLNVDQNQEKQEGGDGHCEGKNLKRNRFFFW
Chain of UniProt P32298 (whole entry, looked up): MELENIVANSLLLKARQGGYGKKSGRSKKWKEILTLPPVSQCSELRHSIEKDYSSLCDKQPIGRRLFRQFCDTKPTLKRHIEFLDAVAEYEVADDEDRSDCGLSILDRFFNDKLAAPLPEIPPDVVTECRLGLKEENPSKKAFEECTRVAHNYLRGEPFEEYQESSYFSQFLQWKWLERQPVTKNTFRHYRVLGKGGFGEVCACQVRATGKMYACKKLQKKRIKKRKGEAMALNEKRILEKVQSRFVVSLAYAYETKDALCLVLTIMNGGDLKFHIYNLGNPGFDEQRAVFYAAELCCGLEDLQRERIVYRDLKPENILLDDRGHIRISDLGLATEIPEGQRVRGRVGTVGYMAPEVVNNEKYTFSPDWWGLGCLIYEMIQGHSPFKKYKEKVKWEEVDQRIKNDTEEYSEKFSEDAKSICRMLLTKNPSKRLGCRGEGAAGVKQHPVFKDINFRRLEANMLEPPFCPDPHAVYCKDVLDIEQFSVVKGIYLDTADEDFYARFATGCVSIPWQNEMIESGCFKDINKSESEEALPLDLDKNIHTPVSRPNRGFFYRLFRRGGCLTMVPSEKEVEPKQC

Study 1
Organism: Plasmodium berghei
Mode: inhibitor
Cells: Huh-7
Strain: GFP-expressing sporozoites, liver stage
Concentration: 10 µM
Time: 24 h
Baseline: untreated control
| Structure (SMILES) | infection rate [%] |
| --- | --- |
| CC(=O)OCC[N+](C)(C)C | 117 |
| CC1(C)S[C@@H]2[C@H](NC(=O)[C@H](N)c3ccc(O)cc3)C(=O)N2[C@H]1C(=O)O | 97.6 |
| CC[C@H]1OC(=O)[C@H](C)[C@@H](O[C@H]2C[C@@](C)(OC)[C@@H](O)[C@H](C)O2)[C@H](C)[C@@H](O[C@@H]2O[C@H](C)C[C@H](N(C)C)[C@H]2O)[C@](C)(O)C[C@@H](C)CN(C)[C@H](C)[C@@H](O)[C@]1(C)O | 93 |
| CC(=O)c1ccc(S(=O)(=O)NC(=O)NC2CCCCC2)cc1 | 85.1 |
| CO[C@@]1(NC(=O)Cc2cccs2)C(=O)N2C(C(=O)O)=C(COC(N)=O)CS[C@@H]21 | 127 |
| COc1ccc(-c2cc(C(F)F)nn2-c2ccc(S(N)(=O)=O)cc2)cc1F | 113 |
| CC(=O)OCC1=C(C(=O)O)N2C(=O)[C@@H](NC(=O)CSc3ccncc3)[C@H]2SC1 | 106 |
| CCC(=O)OCC(=O)[C@@]1(OC(=O)CC)[C@H](C)C[C@H]2[C@H]3[C@H]([C@@H](O)C[C@@]21C)[C@@]1(C)C=CC(=O)C=C1C[C@H]3Cl | 92.5 |
| C[C@]12CCC(=O)C=C1C=C[C@@H]1[C@@H]2CC[C@@]2(C)[C@H]1CC[C@@]21CCC(=O)O1 | 58.1 |

Study 2
Structure (SMILES): C[C@@H](N)[C@H]1CC[C@H](C(=O)Nc2ccncc2)CC1
Effect on: enzyme activity
Mode: inhibitor
Concentration: 0.5 µM
Baseline: control
| target | remaining activity |
| --- | --- |
| PLK3 (Homo sapiens, UniProt Q9H4B4) | 86.5% |
| CAMK4 (Homo sapiens, UniProt Q16566) | 93.7% |
| NEK3 (Homo sapiens, UniProt P51956) | 85.1% |
| Myosin-IIIb (MYO3B, Homo sapiens, UniProt Q8WXR4) | 83.5% |
| DCLK2 (Homo sapiens, UniProt Q8N568) | 96.7% |
| CDC42BPB (Homo sapiens, UniProt Q9Y5S2) | 99.3% |
| TLK2 (Homo sapiens, UniProt Q86UE8) | 96.9% |
| MINK1 (Homo sapiens, UniProt Q8N4C8) | 90% |
| MAPK1 (Homo sapiens, UniProt P28482) | 99.6% |
| MAPK14 (Homo sapiens, UniProt Q16539) | 105% |
| AKT2 (Homo sapiens, UniProt P31751) | 92% |
| MAPK11 (Homo sapiens, UniProt Q15759) | 96.7% |
| GRK4 (Homo sapiens, UniProt P32298) | 94.6% |

Study 3
Target: Histamine H2 receptor (HRH2, Homo sapiens, UniProt P25021)
Chain of UniProt P25021 (whole entry, looked up): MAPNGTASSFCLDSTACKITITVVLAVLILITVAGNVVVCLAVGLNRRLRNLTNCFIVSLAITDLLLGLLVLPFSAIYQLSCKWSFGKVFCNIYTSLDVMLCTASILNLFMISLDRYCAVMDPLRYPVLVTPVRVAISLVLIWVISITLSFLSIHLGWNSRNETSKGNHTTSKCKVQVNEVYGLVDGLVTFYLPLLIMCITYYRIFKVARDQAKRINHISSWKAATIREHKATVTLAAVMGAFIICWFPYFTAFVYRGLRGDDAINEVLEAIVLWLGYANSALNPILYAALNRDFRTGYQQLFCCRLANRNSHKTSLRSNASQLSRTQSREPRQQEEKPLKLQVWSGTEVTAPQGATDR
Effect on: ligand displacement
Concentration: 10 µM
| SMILES | inhibition [%] |
| --- | --- |
| CCC(F)(F)c1cc(N2CCC(S(C)(=O)=O)CC2)nc2sc(C(N)=O)c(N)c12 | -16.7 |
| CNC(=N)NCCC[C@H](NC(=O)[C@H](CC(C)C)NC(=O)NNC(=O)[C@H](Cc1ccccc1)NC(=O)[C@H](CO)NC(=O)[C@H](CC(N)=O)NC(=O)[C@@H](Cc1ccncc1)NC(=O)[C@H](N)Cc1ccc(O)cc1)C(=O)N[C@@H](Cc1ccccc1)C(N)=O | 4.38 |
| Nc1nc(NCc2ccccc2)nc(-c2ccccc2CO)n1 | -17.6 |
| CC1CCN(c2ccnc(NCc3cn(C)cn3)n2)CC1 | 28.6 |
| O=c1nc(-c2ccccn2)sc2ccccc12 | 24.4 |
| CN(C)CC#Cc1ccc(OCCCc2sc(N3CCc4cccc(C(=O)Nc5nc6ccccc6s5)c4C3)nc2C(=O)O)c(F)c1 | 23.2 |
| Nc1nc(NCc2ccccc2)nc(-c2cccc(CO)c2)n1 | 6.14 |

Study 4
SMILES: O=C(Nc1ccccc1)Nc1cccc(Oc2ccc3nccn3n2)c1
Concentration: 1 µM
| target | assay | setting | how to read | remaining binding |
| --- | --- | --- | --- | --- |
| PLK1 (Homo sapiens, UniProt P53350) | competitive binding panel |  | baseline: vehicle | 67% |
| CDKL3 (Homo sapiens, UniProt Q8IVW4) | competitive binding panel |  | baseline: vehicle | 100% |
| MAPK14 (Homo sapiens, UniProt Q16539) | competitive binding | p38-alpha |  | 100% |
| NTRK2 (Homo sapiens, UniProt Q16620) | competitive binding | TRKB |  | 100% |
| RPS6KB1 (Homo sapiens, UniProt P23443) | competitive binding | S6K1 |  | 100% |
| TNK1 (Homo sapiens, UniProt Q13470) | competitive binding panel |  | baseline: vehicle | 77% |
| NEK9 (Homo sapiens, UniProt Q8TD19) | competitive binding panel |  | baseline: vehicle | 64% |
| DYRK1A (Homo sapiens, UniProt Q13627) | competitive binding panel |  | baseline: vehicle | 100% |
| CSNK1G1 (Homo sapiens, UniProt Q9HCP0) | competitive binding panel |  | baseline: vehicle | 100% |

For quick reference, copied from above (study 4):
| target | assay | setting | how to read | remaining binding |
| --- | --- | --- | --- | --- |
| CDKL3 (Homo sapiens, UniProt Q8IVW4) | competitive binding panel |  | baseline: vehicle | 100% |
| MAPK14 (Homo sapiens, UniProt Q16539) | competitive binding | p38-alpha |  | 100% |
| NTRK2 (Homo sapiens, UniProt Q16620) | competitive binding | TRKB |  | 100% |
| RPS6KB1 (Homo sapiens, UniProt P23443) | competitive binding | S6K1 |  | 100% |
| TNK1 (Homo sapiens, UniProt Q13470) | competitive binding panel |  | baseline: vehicle | 77% |
